{"data": "Measurements gathered from unrelated publications", "note": "Each numbered part is a random draw from the data of one study; scales do not carry over between parts. Values joined by “and” are separate records of one study, mostly repeats; a detail may differ.", "chain of UniProt Q16644 (whole entry, looked up)": "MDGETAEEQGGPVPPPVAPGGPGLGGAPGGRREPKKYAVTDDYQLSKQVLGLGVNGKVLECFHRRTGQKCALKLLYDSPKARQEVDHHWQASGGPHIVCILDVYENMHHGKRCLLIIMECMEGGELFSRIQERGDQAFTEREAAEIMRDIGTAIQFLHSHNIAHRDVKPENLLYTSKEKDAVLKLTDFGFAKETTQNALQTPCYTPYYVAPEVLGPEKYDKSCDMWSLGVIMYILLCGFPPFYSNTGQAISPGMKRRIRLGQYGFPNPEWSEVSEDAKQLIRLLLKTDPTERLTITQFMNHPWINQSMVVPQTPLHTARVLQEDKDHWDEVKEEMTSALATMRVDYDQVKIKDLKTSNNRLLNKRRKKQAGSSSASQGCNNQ", "chain of UniProt Q9H3Y6 (whole entry, looked up)": "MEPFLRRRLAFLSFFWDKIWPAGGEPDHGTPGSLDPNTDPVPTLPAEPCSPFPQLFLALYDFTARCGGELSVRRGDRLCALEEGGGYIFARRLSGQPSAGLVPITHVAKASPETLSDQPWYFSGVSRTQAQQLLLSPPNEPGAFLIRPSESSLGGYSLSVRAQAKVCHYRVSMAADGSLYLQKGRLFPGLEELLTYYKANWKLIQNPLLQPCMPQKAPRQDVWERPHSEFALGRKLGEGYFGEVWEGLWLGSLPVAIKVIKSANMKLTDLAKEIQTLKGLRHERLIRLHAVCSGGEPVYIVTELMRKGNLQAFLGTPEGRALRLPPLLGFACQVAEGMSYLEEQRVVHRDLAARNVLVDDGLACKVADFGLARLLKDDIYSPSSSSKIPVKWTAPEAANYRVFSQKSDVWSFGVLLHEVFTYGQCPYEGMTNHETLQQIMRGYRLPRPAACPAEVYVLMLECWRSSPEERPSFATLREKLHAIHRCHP", "chain of UniProt O43781 (whole entry, looked up)": "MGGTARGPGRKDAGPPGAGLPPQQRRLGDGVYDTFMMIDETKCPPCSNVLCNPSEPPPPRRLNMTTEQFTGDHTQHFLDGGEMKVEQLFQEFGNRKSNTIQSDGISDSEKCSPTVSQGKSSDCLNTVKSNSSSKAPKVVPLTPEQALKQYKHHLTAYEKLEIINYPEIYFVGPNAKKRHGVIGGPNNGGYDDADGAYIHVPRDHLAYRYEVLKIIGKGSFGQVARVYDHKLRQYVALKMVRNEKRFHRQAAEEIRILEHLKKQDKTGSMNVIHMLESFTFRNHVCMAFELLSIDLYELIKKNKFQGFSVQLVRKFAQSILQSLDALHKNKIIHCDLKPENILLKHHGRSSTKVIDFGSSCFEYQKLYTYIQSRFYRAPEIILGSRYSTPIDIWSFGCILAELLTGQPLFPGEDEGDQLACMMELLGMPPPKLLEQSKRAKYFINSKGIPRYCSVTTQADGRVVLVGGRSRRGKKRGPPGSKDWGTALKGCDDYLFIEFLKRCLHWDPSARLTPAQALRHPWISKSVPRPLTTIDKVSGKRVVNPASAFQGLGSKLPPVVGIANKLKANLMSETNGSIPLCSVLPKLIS", "chain of UniProt P11802 (whole entry, looked up)": "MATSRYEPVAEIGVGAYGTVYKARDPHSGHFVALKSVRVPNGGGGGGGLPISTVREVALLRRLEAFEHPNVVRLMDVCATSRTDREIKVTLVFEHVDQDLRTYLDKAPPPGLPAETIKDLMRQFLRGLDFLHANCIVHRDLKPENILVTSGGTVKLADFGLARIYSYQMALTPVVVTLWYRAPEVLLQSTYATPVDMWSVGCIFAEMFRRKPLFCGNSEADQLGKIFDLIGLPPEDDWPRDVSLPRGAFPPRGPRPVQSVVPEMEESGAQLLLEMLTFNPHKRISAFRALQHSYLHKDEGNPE", "chain of UniProt Q13153 (whole entry, looked up)": "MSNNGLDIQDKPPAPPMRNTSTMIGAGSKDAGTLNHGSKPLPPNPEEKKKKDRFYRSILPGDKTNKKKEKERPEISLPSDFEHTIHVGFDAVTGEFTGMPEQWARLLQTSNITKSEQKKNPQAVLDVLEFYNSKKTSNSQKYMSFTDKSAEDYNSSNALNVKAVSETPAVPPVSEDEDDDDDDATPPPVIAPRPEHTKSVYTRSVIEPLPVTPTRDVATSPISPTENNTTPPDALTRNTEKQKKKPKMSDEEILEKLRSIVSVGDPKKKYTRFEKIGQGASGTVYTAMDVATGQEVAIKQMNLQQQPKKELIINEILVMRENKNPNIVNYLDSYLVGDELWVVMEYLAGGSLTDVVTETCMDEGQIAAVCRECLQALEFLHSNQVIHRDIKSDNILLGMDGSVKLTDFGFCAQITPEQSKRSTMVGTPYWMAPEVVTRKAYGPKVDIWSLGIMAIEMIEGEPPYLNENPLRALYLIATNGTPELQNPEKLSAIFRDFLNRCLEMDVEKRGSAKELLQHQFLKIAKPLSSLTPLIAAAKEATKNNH", "chain of UniProt P22612 (whole entry, looked up)": "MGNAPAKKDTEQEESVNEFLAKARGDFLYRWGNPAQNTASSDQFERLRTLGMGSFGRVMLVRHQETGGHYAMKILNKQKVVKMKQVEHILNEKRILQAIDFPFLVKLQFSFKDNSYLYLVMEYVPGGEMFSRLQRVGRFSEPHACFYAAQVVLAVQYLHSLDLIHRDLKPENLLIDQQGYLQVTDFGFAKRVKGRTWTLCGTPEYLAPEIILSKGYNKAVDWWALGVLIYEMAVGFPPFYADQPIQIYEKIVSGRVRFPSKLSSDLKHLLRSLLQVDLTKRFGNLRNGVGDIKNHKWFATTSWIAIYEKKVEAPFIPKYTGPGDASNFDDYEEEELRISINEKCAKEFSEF", "chain of UniProt Q6XUX3 (whole entry, looked up)": "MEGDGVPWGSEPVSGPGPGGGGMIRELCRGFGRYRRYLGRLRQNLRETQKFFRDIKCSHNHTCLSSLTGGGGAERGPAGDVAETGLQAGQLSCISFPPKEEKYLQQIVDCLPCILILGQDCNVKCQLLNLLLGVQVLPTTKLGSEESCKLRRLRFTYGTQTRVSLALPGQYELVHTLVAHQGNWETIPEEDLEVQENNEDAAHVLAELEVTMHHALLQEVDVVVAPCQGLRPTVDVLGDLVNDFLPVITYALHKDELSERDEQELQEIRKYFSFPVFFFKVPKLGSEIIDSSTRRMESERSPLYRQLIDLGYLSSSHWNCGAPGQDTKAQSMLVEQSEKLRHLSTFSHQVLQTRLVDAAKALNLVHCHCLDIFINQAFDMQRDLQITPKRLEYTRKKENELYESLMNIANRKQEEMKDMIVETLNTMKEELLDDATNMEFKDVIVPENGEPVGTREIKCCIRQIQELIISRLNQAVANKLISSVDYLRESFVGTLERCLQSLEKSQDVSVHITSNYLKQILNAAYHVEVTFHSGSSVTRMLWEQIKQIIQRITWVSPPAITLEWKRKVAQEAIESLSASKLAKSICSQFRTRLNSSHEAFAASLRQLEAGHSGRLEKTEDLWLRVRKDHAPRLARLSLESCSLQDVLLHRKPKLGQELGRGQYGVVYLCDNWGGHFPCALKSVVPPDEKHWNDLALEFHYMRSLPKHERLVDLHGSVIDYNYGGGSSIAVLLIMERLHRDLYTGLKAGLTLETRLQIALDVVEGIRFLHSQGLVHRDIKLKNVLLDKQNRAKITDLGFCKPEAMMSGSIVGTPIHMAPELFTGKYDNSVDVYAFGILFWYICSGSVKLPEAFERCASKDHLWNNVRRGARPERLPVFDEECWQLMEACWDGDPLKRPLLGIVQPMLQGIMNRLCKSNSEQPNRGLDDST", "chain of UniProt P51451 (whole entry, looked up)": "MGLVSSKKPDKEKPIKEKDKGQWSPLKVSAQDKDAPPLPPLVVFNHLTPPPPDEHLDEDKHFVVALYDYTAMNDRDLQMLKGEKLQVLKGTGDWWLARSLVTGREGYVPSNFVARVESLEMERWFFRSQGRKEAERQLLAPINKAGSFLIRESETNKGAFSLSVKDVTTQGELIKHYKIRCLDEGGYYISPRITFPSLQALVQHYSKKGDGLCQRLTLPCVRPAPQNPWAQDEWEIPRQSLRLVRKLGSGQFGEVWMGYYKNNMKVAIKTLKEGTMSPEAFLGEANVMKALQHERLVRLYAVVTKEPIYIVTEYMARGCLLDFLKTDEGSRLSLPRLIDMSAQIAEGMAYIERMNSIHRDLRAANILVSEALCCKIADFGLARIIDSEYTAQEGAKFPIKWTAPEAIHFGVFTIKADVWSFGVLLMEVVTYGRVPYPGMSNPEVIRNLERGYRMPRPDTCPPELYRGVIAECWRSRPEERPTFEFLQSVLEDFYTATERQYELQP", "chain of UniProt Q9BUB5 (whole entry, looked up)": "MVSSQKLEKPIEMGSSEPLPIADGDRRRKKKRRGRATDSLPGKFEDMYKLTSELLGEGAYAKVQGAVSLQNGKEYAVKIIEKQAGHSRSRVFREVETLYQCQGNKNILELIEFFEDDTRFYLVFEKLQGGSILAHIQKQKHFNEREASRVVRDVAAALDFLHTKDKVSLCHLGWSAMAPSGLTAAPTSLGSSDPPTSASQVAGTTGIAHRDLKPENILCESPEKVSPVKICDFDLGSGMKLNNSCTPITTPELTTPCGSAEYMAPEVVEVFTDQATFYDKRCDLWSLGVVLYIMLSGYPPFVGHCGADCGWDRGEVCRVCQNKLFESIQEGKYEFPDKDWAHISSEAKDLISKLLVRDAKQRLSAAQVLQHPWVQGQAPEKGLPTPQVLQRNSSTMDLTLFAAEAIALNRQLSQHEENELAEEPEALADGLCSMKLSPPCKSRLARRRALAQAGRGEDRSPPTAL", "chain of UniProt P06493 (whole entry, looked up)": "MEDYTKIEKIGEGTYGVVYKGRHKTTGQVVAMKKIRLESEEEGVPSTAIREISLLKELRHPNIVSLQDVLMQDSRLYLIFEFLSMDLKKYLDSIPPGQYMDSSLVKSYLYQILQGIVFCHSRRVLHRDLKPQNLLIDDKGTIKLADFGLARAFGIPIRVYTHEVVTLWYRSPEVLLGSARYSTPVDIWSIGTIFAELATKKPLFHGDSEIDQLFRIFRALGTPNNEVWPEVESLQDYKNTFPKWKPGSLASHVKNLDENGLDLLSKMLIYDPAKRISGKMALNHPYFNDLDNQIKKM"}
{"data": "Study 1", "organism": "Sarcocystis neurona", "effect on": "parasite growth", "concentration": "10 µM"}
{"Compound": "Cc1c(O)cccc1C(=O)N[C@@H](CSc1ccccc1)[C@H](O)CN1C[C@H]2CCCC[C@H]2C[C@H]1C(=O)NC(C)(C)C", "inhibition": "62.6%"}
{"Compound": "CCCCCCNC(=O)n1cc(F)c(=O)[nH]c1=O", "inhibition": "78.4%"}
{"Compound": "CC#C[C@]1(O)CC[C@H]2[C@@H]3CCC4=CC(=O)CCC4=C3[C@@H](c3ccc(N(C)C)cc3)C[C@@]21C", "inhibition": "8.4%"}
{"Compound": "C[C@H]1COc2c(N3CCN(C)CC3)c(F)cc3c(=O)c(C(=O)O)cn1c23", "inhibition": "5.7%"}
{"Compound": "Cc1cnc(NC(=O)C2=C(O)c3ccccc3S(=O)(=O)N2C)s1", "inhibition": "-34%"}
{"Compound": "COc1cc(N)c(Cl)cc1C(=O)NC1CCN(CCCOc2ccc(F)cc2)CC1OC.O (stereo not drawn)", "inhibition": "3.2%"}
{"Compound": "CCOC(=O)CCC(=O)O[C@H]1[C@H](O[C@@H]2[C@@H](C)[C@H](O[C@H]3C[C@@](C)(OC)[C@@H](O)[C@H](C)O3)[C@@H](C)C(=O)O[C@H](CC)[C@@](C)(O)[C@H](O)[C@@H](C)C(=O)[C@H](C)C[C@@]2(C)O)O[C@H](C)C[C@@H]1N(C)C", "inhibition": "19.1%"}
{"Compound": "O=C1CC2(CCCC2)CC(=O)N1CCCCN1CCN(c2ncccn2)CC1", "inhibition": "-24.8%"}
{"data": "Study 2", "Compound": "CCCNC(=O)Nc1ccc(Oc2ncnc3cc(OC)c(OC)cc23)cc1Cl", "effect on": "enzyme activity", "mode": "inhibitor", "concentration": "0.5 µM", "reference": "control"}
{"target": "cAMP-dependent protein kinase catalytic subunit gamma (PRKACG, Homo sapiens, UniProt P22612)", "remaining activity": "106%"}
{"target": "Ephrin type-B receptor 4 (EPHB4, Homo sapiens, UniProt P54760)", "remaining activity": "89.4%"}
{"target": "Ribosomal protein S6 kinase alpha-5 (RPS6KA5, Homo sapiens, UniProt O75582)", "remaining activity": "95.6%"}
{"target": "Calcium/calmodulin-dependent protein kinase type II subunit beta (CAMK2B, Homo sapiens, UniProt Q13554)", "remaining activity": "94.9%"}
{"target": "Ephrin type-B receptor 1 (EPHB1, Homo sapiens, UniProt P54762)", "remaining activity": "95.5%"}
{"target": "Cyclin-dependent kinase 4, with cyclin D3 (CDK4, Homo sapiens, UniProt P11802)", "remaining activity": "101%"}
{"target": "Tyrosine-protein kinase receptor UFO (AXL, Homo sapiens, UniProt P30530)", "remaining activity": "101%"}
{"target": "Ephrin type-A receptor 4 (EPHA4, Homo sapiens, UniProt P54764)", "remaining activity": "93.4%"}
{"target": "Tyrosine-protein kinase Blk (BLK, Homo sapiens, UniProt P51451)", "remaining activity": "96.8%"}
{"target": "Phosphorylase b kinase gamma catalytic chain, skeletal muscle/heart isoform (PHKG1, Homo sapiens, UniProt Q16816)", "remaining activity": "91.3%"}
{"target": "Serine/threonine-protein kinase WNK3 (WNK3, Homo sapiens, UniProt Q9BYP7)", "remaining activity": "93.8%"}
{"target": "Serine/threonine-protein kinase 16 (STK16, Homo sapiens, UniProt O75716)", "remaining activity": "93.4%"}
{"target": "Tyrosine-protein kinase ABL1 (ABL1, Homo sapiens, UniProt P00519)", "remaining activity": "89%"}
{"target": "Dual specificity tyrosine-phosphorylation-regulated kinase 3 (DYRK3, Homo sapiens, UniProt O43781)", "remaining activity": "99.7%"}
{"target": "3-phosphoinositide-dependent protein kinase 1 (PDPK1, Homo sapiens, UniProt O15530)", "remaining activity": "86.8%"}
{"target": "Cyclin-dependent kinase 6, with cyclin D3 (CDK6, Homo sapiens, UniProt Q00534)", "remaining activity": "89.5%"}
{"target": "Serine/threonine-protein kinase 17A (STK17A, Homo sapiens, UniProt Q9UEE5)", "remaining activity": "99%"}
{"target": "Homeodomain-interacting protein kinase 4 (HIPK4, Homo sapiens, UniProt Q8NE63)", "remaining activity": "93.5%"}
{"target": "Ribosomal protein S6 kinase alpha-6 (RPS6KA6, Homo sapiens, UniProt Q9UK32)", "remaining activity": "102%"}
{"target": "Homeodomain-interacting protein kinase 2 (HIPK2, Homo sapiens, UniProt Q9H2X6)", "remaining activity": "97.9%"}
{"target": "Mitogen-activated protein kinase kinase kinase kinase 4 (MAP4K4, Homo sapiens, UniProt O95819)", "remaining activity": "86.4%"}
{"target": "Tyrosine-protein kinase Srms (SRMS, Homo sapiens, UniProt Q9H3Y6)", "remaining activity": "105%"}
{"target": "Testis-specific serine/threonine-protein kinase 2 (TSSK2, Homo sapiens, UniProt Q96PF2)", "remaining activity": "98.7%"}
{"target": "MAP kinase-activated protein kinase 3 (MAPKAPK3, Homo sapiens, UniProt Q16644)", "remaining activity": "95.8%"}
{"target": "Cyclin-dependent kinase 1, with cyclin B (CDK1, Homo sapiens, UniProt P06493)", "remaining activity": "98%"}
{"data": "Study 3", "SMILES": "CC1=C(C#N)C(c2ccc3c(c2)c(NC(=O)c2ccccc2C)nn3C)C(C#N)=C(C)N1", "technique": "competition with immobilised ligand", "concentration": "1 µM"}
{"target": "Platelet-derived growth factor receptor beta (PDGFRB, Homo sapiens, UniProt P09619)", "effect on": "cell-free assay", "remaining binding [%]": 94}
{"target": "Vascular endothelial growth factor receptor 2 (KDR, Homo sapiens, UniProt P35968)", "effect on": "cell-free assay", "remaining binding [%]": 80}
{"target": "Receptor-type tyrosine-protein kinase FLT3 (FLT3, Homo sapiens, UniProt P36888)", "effect on": "cell-free assay", "remaining binding [%]": 90}
{"target": "Dual serine/threonine and tyrosine protein kinase (DSTYK, Homo sapiens, UniProt Q6XUX3)", "effect on": "cell-free assay", "remaining binding [%]": 72}
{"target": "ALK tyrosine kinase receptor (ALK, Homo sapiens, UniProt Q9UM73, C1156Y)", "effect on": "cell-free assay", "remaining binding [%]": 96}
{"target": "Epidermal growth factor receptor (EGFR, Homo sapiens, UniProt P00533, A750P/del747-749)", "effect on": "cell-free assay", "remaining binding [%]": 93}
{"target": "Myosin-IIIa (MYO3A, Homo sapiens, UniProt Q8NEV4)", "effect on": "binding", "remaining binding [%]": 86}
{"target": "Serine/threonine-protein kinase PAK 1 (PAK1, Homo sapiens, UniProt Q13153)", "effect on": "cell-free assay", "remaining binding [%]": 100}
{"target": "MAP kinase-interacting serine/threonine-protein kinase 1 (MKNK1, Homo sapiens, UniProt Q9BUB5)", "effect on": "cell-free assay", "remaining binding [%]": 70}
{"target": "MAP kinase-activated protein kinase 2 (MAPKAPK2, Homo sapiens, UniProt P49137)", "effect on": "cell-free assay", "remaining binding [%]": 84}
{"target": "Receptor-interacting serine/threonine-protein kinase 4 (RIPK4, Homo sapiens, UniProt P57078)", "effect on": "cell-free assay", "remaining binding [%]": 78}
{"target": "Tyrosine-protein kinase ABL2 (ABL2, Homo sapiens, UniProt P42684)", "effect on": "cell-free assay", "remaining binding [%]": 99}
{"target": "Inhibitor of nuclear factor kappa-B kinase subunit epsilon (IKBKE, Homo sapiens, UniProt Q14164)", "effect on": "cell-free assay", "remaining binding [%]": 100}
{"target": "Receptor-type tyrosine-protein kinase FLT3 (FLT3, Homo sapiens, UniProt P36888, D835V)", "effect on": "cell-free assay", "remaining binding [%]": 90}
{"target": "Receptor tyrosine-protein kinase erbB-4 (ERBB4, Homo sapiens, UniProt Q15303)", "effect on": "cell-free assay", "remaining binding [%]": 65}
{"target": "Cyclin-dependent kinase 14 (CDK14, Homo sapiens, UniProt O94921)", "effect on": "cell-free assay", "remaining binding [%]": 100}
{"target": "Ephrin type-B receptor 2 (EPHB2, Homo sapiens, UniProt P29323)", "effect on": "cell-free assay", "remaining binding [%]": 86}
{"data": "Single results of other studies"}
{"SMILES": "c1ccc2c(-c3nn4c(-c5ccncc5)nnc4s3)c[nH]c2c1", "tested on": "Gaucher fibroblasts L444P/L444P", "test": "4-MUG hydrolysis, cell lysate", "setting": "0.5 µM, 72 h, together with: ISRIB", "scale": "reference: vehicle", "quantity": "GCase activity", "value": "208% and 198% and 186% and 188% and 201% and 187%"}
{"SMILES": "CC(C)n1cnc(-c2ccc(F)cc2)c1-c1ncc(C(=O)Nc2ccc(N3CCN(C)CC3)cc2)[nH]1", "system": "human, idiopathic pulmonary fibrosis", "setting": "60 mg once daily, trial, treatment-emergent", "quantity": "grade 5 ECG high voltage", "value": "0%"}
{"SMILES": "Cc1cccc(/C=N/Nc2cc(N3CCOCC3)nc(OCCc3ccccn3)n2)c1", "tested on": "L444P/L444P Gaucher fibroblasts", "test": "4-MUG hydrolysis in lysate", "setting": "0.5 µM, 72 h, together with: ISRIB", "scale": "reference: vehicle", "quantity": "GCase activity", "value": "236% and 185% and 186% and 190% and 204% and 167% and 196%"}
{"SMILES": "Ic1ccc(Nc2nc(NCCN3CCOCC3)nc(N3CCOCC3)n2)cc1", "tested on": "Gaucher fibroblasts L444P/L444P", "test": "4-MUG hydrolysis, cell lysate", "setting": "5 µM", "scale": "reference: DMSO", "quantity": "GCase activity", "value": "189% and 193% and 156%"}
